Published values gathered from unrelated publications.
A part holds a random share of what one study measured. pIC50: −log10 of the molar value.
UniProt Q86UX6, sequence (whole entry, looked up): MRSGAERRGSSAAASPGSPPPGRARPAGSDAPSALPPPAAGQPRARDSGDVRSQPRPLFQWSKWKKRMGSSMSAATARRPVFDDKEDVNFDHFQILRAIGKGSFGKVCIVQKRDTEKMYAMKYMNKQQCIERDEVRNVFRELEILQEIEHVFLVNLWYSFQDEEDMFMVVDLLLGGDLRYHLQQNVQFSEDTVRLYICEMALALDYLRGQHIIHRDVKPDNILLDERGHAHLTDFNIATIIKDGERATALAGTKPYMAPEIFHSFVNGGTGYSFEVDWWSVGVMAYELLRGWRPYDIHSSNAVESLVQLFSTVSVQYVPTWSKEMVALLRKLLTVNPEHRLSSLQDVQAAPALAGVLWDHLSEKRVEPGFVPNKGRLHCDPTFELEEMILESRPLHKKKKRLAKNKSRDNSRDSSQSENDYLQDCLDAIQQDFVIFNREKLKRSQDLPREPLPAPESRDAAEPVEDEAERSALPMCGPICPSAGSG
UniProt P10721, sequence (whole entry, unmodified, looked up): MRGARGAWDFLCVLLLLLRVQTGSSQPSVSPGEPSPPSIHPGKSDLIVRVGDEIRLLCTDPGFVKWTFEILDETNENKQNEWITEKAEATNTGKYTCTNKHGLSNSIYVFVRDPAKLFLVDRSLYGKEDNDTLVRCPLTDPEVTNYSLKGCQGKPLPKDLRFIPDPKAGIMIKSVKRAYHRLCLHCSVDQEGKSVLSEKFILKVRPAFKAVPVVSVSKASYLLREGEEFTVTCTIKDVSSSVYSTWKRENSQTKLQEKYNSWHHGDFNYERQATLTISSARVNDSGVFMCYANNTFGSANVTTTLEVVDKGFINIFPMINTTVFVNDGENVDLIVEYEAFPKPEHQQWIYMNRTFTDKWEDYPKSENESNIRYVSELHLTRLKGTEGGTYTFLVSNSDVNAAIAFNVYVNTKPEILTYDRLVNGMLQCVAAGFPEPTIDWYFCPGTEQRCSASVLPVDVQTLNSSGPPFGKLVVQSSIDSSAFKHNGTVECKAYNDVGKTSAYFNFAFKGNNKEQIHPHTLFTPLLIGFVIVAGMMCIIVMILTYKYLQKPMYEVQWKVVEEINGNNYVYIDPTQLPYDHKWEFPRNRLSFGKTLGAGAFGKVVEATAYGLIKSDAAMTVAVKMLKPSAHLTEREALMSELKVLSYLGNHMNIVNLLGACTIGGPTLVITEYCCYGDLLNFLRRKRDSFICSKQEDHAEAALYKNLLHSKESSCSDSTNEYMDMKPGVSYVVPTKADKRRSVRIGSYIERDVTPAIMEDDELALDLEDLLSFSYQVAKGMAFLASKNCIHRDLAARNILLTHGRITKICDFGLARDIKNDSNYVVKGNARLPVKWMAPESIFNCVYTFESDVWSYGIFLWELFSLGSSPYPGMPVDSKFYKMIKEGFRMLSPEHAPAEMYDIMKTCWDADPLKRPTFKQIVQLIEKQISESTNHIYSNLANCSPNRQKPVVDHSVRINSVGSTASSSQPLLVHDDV
UniProt P09769, sequence (whole entry, looked up): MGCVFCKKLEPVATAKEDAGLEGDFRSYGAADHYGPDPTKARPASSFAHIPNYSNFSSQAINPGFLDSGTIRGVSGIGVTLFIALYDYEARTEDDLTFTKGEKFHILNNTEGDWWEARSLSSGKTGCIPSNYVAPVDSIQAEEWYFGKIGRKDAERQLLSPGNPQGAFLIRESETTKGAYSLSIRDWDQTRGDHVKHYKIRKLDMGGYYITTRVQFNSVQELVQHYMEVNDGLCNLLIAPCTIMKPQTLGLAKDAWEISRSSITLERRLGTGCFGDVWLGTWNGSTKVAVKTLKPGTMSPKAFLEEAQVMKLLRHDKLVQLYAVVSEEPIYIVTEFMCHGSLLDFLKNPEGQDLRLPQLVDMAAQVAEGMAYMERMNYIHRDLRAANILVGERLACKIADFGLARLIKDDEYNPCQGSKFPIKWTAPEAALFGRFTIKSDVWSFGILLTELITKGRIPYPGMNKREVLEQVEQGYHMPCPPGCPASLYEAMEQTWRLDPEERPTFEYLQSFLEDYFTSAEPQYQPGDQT
UniProt P78356, sequence (whole entry, looked up): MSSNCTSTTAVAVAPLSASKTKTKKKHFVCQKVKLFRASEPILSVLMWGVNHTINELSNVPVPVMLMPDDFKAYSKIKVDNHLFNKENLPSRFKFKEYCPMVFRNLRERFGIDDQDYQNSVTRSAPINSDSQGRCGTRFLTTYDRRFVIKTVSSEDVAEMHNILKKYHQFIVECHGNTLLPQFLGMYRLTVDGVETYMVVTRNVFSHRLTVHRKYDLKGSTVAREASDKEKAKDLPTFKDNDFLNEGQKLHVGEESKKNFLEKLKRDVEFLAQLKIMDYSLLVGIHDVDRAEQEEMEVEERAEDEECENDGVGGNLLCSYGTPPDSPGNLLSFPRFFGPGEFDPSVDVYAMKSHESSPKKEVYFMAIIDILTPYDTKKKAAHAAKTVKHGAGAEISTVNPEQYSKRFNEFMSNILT
UniProt P27361, sequence (whole entry, looked up): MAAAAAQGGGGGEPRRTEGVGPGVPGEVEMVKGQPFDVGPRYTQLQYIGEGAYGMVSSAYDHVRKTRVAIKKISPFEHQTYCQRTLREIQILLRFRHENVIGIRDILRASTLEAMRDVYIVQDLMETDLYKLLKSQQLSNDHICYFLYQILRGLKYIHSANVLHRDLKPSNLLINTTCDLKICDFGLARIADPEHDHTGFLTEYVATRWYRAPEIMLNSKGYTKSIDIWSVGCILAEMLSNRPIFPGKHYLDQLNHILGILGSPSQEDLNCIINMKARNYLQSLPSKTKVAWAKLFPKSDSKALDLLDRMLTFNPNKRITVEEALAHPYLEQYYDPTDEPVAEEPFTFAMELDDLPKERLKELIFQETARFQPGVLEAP

Study 1 — observed: cell-free assay; technique: competition with immobilised ligand; tested at: 1 µM
SMILES: CO[C@@H](C)c1c(Nc2ccc([C@@H](N(C)C(=O)C3CCS(=O)(=O)CC3)C(F)(F)F)cc2)cnc2cc(Cl)nn12
| target | remaining binding [%] |
| --- | --- |
| PIP4K2B (Homo sapiens, UniProt P78356) | 100 |
| EGFR (Homo sapiens, UniProt P00533) | 95 |
| KIT (Homo sapiens, UniProt P10721, L576P) | 100 |
| FGR (Homo sapiens, UniProt P09769) | 100 |
| RET (Homo sapiens, UniProt P07949, V804L) | 78 |
| ERBB2 (Homo sapiens, UniProt P04626) | 70 |
| PRKACA (Homo sapiens, UniProt P17612) | 87 |
| MAPK3 (Homo sapiens, UniProt P27361) | 86 |
| MAP3K10 (Homo sapiens, UniProt Q02779) | 77 |
| STK32C (Homo sapiens, UniProt Q86UX6) | 82 |

Study 2 — observed: enzyme activity; action: inhibitor; tested at: 0.5 µM; baseline: control
Target: Tyrosine-protein kinase SYK (SYK, Homo sapiens, UniProt P43405)
| SMILES | remaining activity |
| --- | --- |
| CCc1[nH]c(-c2ccc(OC)cc2)nc1-c1ccncc1 | 98.7% |
| Nc1nc(Nc2ccc(S(N)(=O)=O)cc2)nn1C(=O)c1c(F)cccc1F | 61.6% |
| O=C1Cc2c([nH]c3ccc([N+](=O)[O-])cc23)-c2ccccc2N1 | 53.9% |
| N#CC(=C(N)Sc1ccc(N)cc1)c1ccccc1C(F)(F)F | 99.3% |
| NC(=O)c1ccc(N(C(N)=O)c2c(F)cccc2F)nc1-c1ccc(F)cc1F | 110% |
| O=C1NC(=O)C(c2c[nH]c3ccccc23)=C1c1c[nH]c2ccccc12 | 103% |

Study 3 — action: antagonist
Target: Beta-1 adrenergic receptor (ADRB1, Homo sapiens, UniProt P08588)
UniProt P08588, sequence (whole entry, looked up): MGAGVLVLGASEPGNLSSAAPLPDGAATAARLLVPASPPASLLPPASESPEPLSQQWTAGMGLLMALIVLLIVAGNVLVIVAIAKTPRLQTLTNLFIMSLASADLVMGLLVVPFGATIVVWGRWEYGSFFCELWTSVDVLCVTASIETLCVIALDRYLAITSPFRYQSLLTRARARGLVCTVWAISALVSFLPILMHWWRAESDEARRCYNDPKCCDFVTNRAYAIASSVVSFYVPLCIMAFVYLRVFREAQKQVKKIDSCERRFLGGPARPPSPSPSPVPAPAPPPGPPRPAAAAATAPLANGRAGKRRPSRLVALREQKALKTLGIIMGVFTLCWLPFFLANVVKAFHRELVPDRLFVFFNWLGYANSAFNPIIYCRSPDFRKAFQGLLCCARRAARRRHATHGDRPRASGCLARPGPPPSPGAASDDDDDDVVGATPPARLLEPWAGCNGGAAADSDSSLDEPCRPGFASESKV
| SMILES | pIC50 |
| --- | --- |
| Cc1nc(Nc2cnn(C3CCNCC3)c2)nc2c1N(C)C(=O)c1cc3ccccc3cc1N2C | ≤ 4.00 |
| COc1ccccc1N1CCN(CCCCN2C(=O)CCC2=O)CC1 | 4.65 |
| COc1ccccc1N1CCN([C@H]2[C@@H]3OC[C@@H](O3)[C@@H](NCc3ccc(-c4ccccc4)cc3)[C@@H]2O)CC1 | ≤ 4.00 |
| Cc1noc2c(NCCc3ccccn3)cc(-c3ccccc3)nc12 | ≤ 4.00 |
| CC#CCn1cc2c3c(cccc31)[C@H](CC(C)C)N[C@H](C(=O)NCCNC(C)=O)C2 | ≤ 4.00 |
| COc1ccccc1N1CCN(CC[C@@H]2CC[C@H](O)[C@@H](C(=O)Nc3ccccc3)O2)CC1 | ≤ 4.00 |
| Cc1cc2c(F)c(Oc3ncnn4cc(OC[C@@H](C)OC(=O)[C@H](C)N)c(C)c34)ccc2[nH]1 | ≤ 4.00 |
| CS(=O)(=O)N(CC(O)Cn1c2ccccc2c2ccccc21)c1ccccc1I (stereo not shown) | ≤ 4.00 |

Other studies, line by line
| SMILES | species | dose | notes | quantity | result |
| --- | --- | --- | --- | --- | --- |
| CC(C)n1cnc(-c2ccc(F)cc2)c1-c1ncc(C(=O)Nc2ccc(N3CCN(C)CC3)cc2)[nH]1 | IPF patients | 60 mg once daily | adverse event | Hypercholesterolaemia incidence | 0% |

Some of these lines once more (study 3):
| SMILES | pIC50 |
| --- | --- |
| CC#CCn1cc2c3c(cccc31)[C@H](CC(C)C)N[C@H](C(=O)NCCNC(C)=O)C2 | ≤ 4.00 |
| COc1ccccc1N1CCN([C@H]2[C@@H]3OC[C@@H](O3)[C@@H](NCc3ccc(-c4ccccc4)cc3)[C@@H]2O)CC1 | ≤ 4.00 |
| Cc1cc2c(F)c(Oc3ncnn4cc(OC[C@@H](C)OC(=O)[C@H](C)N)c(C)c34)ccc2[nH]1 | ≤ 4.00 |
| COc1ccccc1N1CCN(CC[C@@H]2CC[C@H](O)[C@@H](C(=O)Nc3ccccc3)O2)CC1 | ≤ 4.00 |
